Results gathered from unrelated publications.
Lines come from different studies, so protocols differ. Values joined by “and” are separate records of one study, mostly repeats; a detail may differ. ± marks the error that the study gave.
Chain of UniProt Q12809 (whole entry, looked up): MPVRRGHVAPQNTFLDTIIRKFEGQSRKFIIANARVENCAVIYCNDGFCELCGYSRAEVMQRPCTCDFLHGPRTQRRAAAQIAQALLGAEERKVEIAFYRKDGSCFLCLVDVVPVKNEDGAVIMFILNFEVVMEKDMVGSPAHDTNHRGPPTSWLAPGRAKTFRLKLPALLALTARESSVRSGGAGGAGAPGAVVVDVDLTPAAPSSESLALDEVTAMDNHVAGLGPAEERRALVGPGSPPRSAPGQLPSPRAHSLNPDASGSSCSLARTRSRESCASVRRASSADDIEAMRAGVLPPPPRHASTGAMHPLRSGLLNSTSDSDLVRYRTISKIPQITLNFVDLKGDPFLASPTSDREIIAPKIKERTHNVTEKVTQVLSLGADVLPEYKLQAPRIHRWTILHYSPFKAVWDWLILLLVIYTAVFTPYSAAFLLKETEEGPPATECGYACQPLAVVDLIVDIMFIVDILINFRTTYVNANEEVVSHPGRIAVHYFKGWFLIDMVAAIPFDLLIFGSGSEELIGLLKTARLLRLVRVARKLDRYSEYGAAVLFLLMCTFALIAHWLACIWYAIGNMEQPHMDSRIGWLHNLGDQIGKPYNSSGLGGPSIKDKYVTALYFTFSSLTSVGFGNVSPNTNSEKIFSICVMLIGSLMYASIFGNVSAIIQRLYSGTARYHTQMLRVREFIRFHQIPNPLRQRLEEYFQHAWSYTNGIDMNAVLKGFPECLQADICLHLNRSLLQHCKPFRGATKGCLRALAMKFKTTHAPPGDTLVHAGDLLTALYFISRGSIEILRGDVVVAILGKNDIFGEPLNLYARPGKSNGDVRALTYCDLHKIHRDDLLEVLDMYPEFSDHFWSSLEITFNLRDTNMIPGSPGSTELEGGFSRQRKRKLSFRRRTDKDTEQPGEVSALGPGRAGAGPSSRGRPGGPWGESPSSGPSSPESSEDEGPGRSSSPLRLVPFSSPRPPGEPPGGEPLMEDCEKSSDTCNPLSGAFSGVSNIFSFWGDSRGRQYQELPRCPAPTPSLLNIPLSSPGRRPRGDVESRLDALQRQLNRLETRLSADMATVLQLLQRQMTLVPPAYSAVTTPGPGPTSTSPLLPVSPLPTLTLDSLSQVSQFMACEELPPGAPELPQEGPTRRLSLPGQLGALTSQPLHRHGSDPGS
Chain of UniProt P51589 (whole entry, looked up): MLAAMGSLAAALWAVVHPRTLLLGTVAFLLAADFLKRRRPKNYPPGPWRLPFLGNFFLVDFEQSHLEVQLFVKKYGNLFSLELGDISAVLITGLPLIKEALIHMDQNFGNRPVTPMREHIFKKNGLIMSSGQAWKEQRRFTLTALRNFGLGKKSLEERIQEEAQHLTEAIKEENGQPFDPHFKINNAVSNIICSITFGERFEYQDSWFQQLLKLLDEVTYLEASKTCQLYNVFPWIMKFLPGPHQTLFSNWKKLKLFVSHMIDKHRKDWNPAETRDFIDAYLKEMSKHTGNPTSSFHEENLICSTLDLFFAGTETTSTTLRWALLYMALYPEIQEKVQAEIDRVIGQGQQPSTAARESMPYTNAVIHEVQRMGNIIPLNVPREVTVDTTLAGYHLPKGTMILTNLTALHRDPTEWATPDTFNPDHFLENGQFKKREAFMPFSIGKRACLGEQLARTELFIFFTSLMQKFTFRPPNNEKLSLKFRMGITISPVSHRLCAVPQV
Chain of UniProt Q8TCC7 (whole entry, looked up): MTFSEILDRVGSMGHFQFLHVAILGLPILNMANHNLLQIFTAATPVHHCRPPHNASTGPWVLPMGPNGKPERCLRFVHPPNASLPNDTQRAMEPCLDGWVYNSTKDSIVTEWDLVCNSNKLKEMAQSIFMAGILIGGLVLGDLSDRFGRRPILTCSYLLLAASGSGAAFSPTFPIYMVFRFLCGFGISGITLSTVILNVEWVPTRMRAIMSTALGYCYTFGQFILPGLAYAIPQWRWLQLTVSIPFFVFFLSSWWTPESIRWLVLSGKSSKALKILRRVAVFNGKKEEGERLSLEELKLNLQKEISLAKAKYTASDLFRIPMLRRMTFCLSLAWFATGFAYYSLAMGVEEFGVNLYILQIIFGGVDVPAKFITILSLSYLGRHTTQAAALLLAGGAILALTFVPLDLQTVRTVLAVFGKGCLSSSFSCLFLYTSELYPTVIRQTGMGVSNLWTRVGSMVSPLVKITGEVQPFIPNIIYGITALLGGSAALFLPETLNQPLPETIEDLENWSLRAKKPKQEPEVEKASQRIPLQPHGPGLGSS

CCCCN(C=O)c1c(CC)nc2ccc(C(=O)N(C)Cc3ccco3)cn12
cell density reduction (SH-SY5Y; sulforhodamine B; 100 µM, 72 h): 65.9%

Cc1nc2cccc(OCC(C)(C)C(=O)NC(C)C)c2c(N)c1C(=O)[O-].[Na+]
revertant colonies per plate (Salmonella typhimurium; TA100; 5.0 mg per plate, without S9, plate incorporation): 147 ± 7

O=C(NS(=O)(=O)c1cccs1)c1cc2ccccc2n1Cc1ccc(Br)c2ccccc12
body weight (KM mouse, chronic hyperuricaemia model; dose not given, day 1): 24.4 g

CN(C)CCCNC(=O)[C@@H]1NC(=O)[C@@H]2Cc3ccc(cc3)Oc3cc4cc(c3O)-c3ccc5c(c[nH]c5c3)C[C@@H](NC(=O)C(NC(=O)CCCCCN)c3ccc(O)cc3)C(=O)N[C@H](c3ccc(O)cc3)C(=O)N[C@H]4C(=O)N[C@@H](C(=O)N2C)c2ccc(cc2)Oc2cc1ccc2O (stereo partly drawn)
hemolysis (human red blood cells; PBS; 512 µg/mL, 1 h, pH 7.4, 37 °C): 0%

CC1(F)CN(C(=O)Cn2c(=O)c(C(=O)NCc3ccc(Cl)cc3)cc3nc(N4CCN(CCN)C4=O)cnc32)C1
selectivity ratio (human cytomegalovirus; MRC-5, Davis; baseline: CC50 over EC50): > 200

[2H]c1nc([2H])c(-c2nc([2H])n3c2C([2H])([2H])N=C(c2ccccn2)c2cc(C#C)ccc2-3)o1
AUC(0-t) (Sprague Dawley rat, plasma; oral, 2 mg/kg, 0 to 24 h, cassette dosing): 1370 ng·h/mL

Cc1cc(-c2ccc3ccccc3c2)nnc1NCCN1CCN(C)CC1
remaining compound (Cytochrome P450 2J2 (CYP2J2, Homo sapiens, UniProt P51589); substrate; recombinant enzyme; 1000 nM, 30 min): 93.8%

COc1ccc2c3c1O[C@H]1[C@H](O)CC[C@@]4(O)[C@@H](C2)N(C)CC[C@]314
logP (1 h): 1.21

CC[C@H](C)[C@H](NC(=O)[C@H](CCCCN)NC(=O)CNC(=O)[C@H](CC(C)C)NC(=O)[C@H](Cc1ccccc1)NC(=O)[C@H](CCCCN)NC(=O)[C@H](CO)NC(=O)[C@H](Cc1ccccc1)NC(=O)[C@H](Cc1c[nH]c2ccccc12)NC(=O)[C@H](CCC(N)=O)NC(=O)[C@@H](NC(=O)[C@H](Cc1ccccc1)NC(=O)CCCCCNC(=O)CN1CCN(CC(=O)O)CCN(CC(=O)O)CCN(CC(=O)O)CC1)C(C)C)C(=O)N[C@@H](CCC(=O)O)C(=O)N1CCC[C@H]1C(=O)N[C@@H](CC(=O)O)C(=O)N[C@H](C(=O)N[C@@H](CO)C(=O)N[C@@H](CCC(N)=O)C(=O)N[C@H](C(=O)N[C@@H](CCC(N)=O)C(=O)N[C@@H](CC(=O)O)C(=O)N1CCC[C@H]1C(=O)N[C@@H](CC(N)=O)C(=O)N[C@@H](CC(=O)O)C(=O)N[C@@H](CCC(N)=O)C(=O)N[C@@H](Cc1ccc(O)cc1)C(=O)N[C@@H](CCC(=O)O)C(=O)N1CCC[C@H]1C(=O)N[C@@H](Cc1ccccc1)C(=O)O)C(C)C)C(C)C [copper-64 labelled]
tissue uptake (C57BL/6 mice, lung; added: LPS 0.1 mg/kg intratracheal): 3.41 ± 0.3 %ID/g

CCN(CC)CCOc1ccc(-c2nnn(Cc3ccc(OC)cc3)c2N)cc1
inhibition (Cytochrome P450 2B6 (CYP2B6, Homo sapiens, UniProt P20813); CYP phenotyping; concentration not given): -11.9%

O=C(O)CCCOc1ccc(O)cc1-c1cc(-c2ccccc2C(F)(F)F)n(-c2ccccc2)n1
growth-inhibiting concentration (Salmonella typhimurium; Ames test; TA1537; concentration not given, with S9 metabolic activation): ≥ 1250 µg/plate

COc1cc2c(cc1NC(=O)c1cncn1C)C[C@H]1[C@H]3CCCC[C@@]23CCN1C
unbound fraction (equilibrium dialysis; human plasma; 5 µM, 6 h): 0.735

O=C1NC2(CC2)COc2ncc(F)cc2[C@H]2COCCN2c2ccn3ncc1c3n2
revertant colonies (Salmonella typhimurium; Ames test; TA1535; 500 µg/plate, 48 h, added: rat liver S9): 7 ± 4 revertants/plate

CC(=O)NCCCC[C@@H]1NC(=O)[C@H](Cc2c[nH]c3c(C)cccc23)NC(=O)[C@H]([C@@H](C)O)NC(=O)[C@H](CC(N)=O)NC(=O)[C@@H](NC(C)=O)C(C)(C)SSC(C)(C)[C@@H](C(=O)N[C@@H](Cc2ccc(OCCN)cc2)C(=O)N[C@@H](Cc2ccc3ccccc3c2)C(=O)NC2(C(=O)N[C@@H](CCC(=O)O)C(=O)N[C@@H](CC(N)=O)C(=O)N[C@@H](Cc3cccnc3)C(=O)N(C)CC(N)=O)CCOCC2)NC1=O
uptake rate (Organic anion transporter 3 (SLC22A8, Homo sapiens, UniProt Q8TCC7); substrate; MDCK-II cells, transfected; 5 µM, 30 min, added: probenecid 300 µM): 0.532 ± 0.044 pmol/mg/min

Cc1nc(=O)c2cc(CN(C)c3ccc(C(=O)NCc4ccccn4)s3)ccc2[nH]1
uptake from medium (Mycobacterium tuberculosis; H37Rv; 10 µM, 24 h): 55.1%

CNC(=O)C[C@H](Cc1ccc(F)cc1)NC(=O)[C@@H](Cc1ccc(Cl)cc1Cl)NC(=O)[C@H](N)Cc1ccccc1C#N
viability (Huh-7-ACE2; CellTiter-Glo; 0.0061 µM, 48 h, unit not given; baseline: DMSO): 0.944 and 0.994 and 0.991

COc1ccc2c(c1)[C@]13CCCC[C@@H]1[C@H](C2)N(C)CC3
inhibition (Voltage-gated inwardly rectifying potassium channel KCNH2 (KCNH2, Homo sapiens, UniProt Q12809); ligand displacement, radioligand; 1 µM): 13.3%

COc1ccc(-n2cc(C(=O)N3C[C@]4(OC(=O)c5ccccc5NC(C)=O)CC[C@H](OC)[C@@]56[C@@H]4C[C@@H]([C@@H]35)[C@@]3(O)C[C@H](OC)[C@H]4C[C@@H]6[C@]3(O)[C@H]4OC)nn2)cc1
AUC(0-t) (rat Sprague-Dawley, plasma; intravenous, 2 mg/kg): 52.1 ng·h/mL

Nc1nc(Nc2ccc(Cl)cc2)nn1S(=O)(=O)c1ccc2ccccc2c1
CC50 (BHK-21): 7.9 µM

CNC(=O)CC[C@H](Cc1ccccc1)NC(=O)[C@@H](Cc1ccc(Cl)cc1Cl)NC(=O)[C@H](N)Cc1ccccc1[N+](=O)[O-]
viability (Huh-7-ACE2; CellTiter-Glo; 0.00153 µM, 48 h, unit not given; baseline: DMSO): 0.998 and 0.951 and 0.824

COc1cc2nc(NC3CCN(Cc4ccc(C(N)=O)cc4)CC3)nc(Oc3c(C)cc(C#N)cc3C)c2cc1OC
selectivity index (HIV-1; MT4, IIIB wild type; baseline: CC50 over EC50): 3470

Excerpt of the above:
COc1ccc2c3c1O[C@H]1[C@H](O)CC[C@@]4(O)[C@@H](C2)N(C)CC[C@]314
logP (1 h): 1.21

CC[C@H](C)[C@H](NC(=O)[C@H](CCCCN)NC(=O)CNC(=O)[C@H](CC(C)C)NC(=O)[C@H](Cc1ccccc1)NC(=O)[C@H](CCCCN)NC(=O)[C@H](CO)NC(=O)[C@H](Cc1ccccc1)NC(=O)[C@H](Cc1c[nH]c2ccccc12)NC(=O)[C@H](CCC(N)=O)NC(=O)[C@@H](NC(=O)[C@H](Cc1ccccc1)NC(=O)CCCCCNC(=O)CN1CCN(CC(=O)O)CCN(CC(=O)O)CCN(CC(=O)O)CC1)C(C)C)C(=O)N[C@@H](CCC(=O)O)C(=O)N1CCC[C@H]1C(=O)N[C@@H](CC(=O)O)C(=O)N[C@H](C(=O)N[C@@H](CO)C(=O)N[C@@H](CCC(N)=O)C(=O)N[C@H](C(=O)N[C@@H](CCC(N)=O)C(=O)N[C@@H](CC(=O)O)C(=O)N1CCC[C@H]1C(=O)N[C@@H](CC(N)=O)C(=O)N[C@@H](CC(=O)O)C(=O)N[C@@H](CCC(N)=O)C(=O)N[C@@H](Cc1ccc(O)cc1)C(=O)N[C@@H](CCC(=O)O)C(=O)N1CCC[C@H]1C(=O)N[C@@H](Cc1ccccc1)C(=O)O)C(C)C)C(C)C [copper-64 labelled]
tissue uptake (C57BL/6 mice, lung; added: LPS 0.1 mg/kg intratracheal): 3.41 ± 0.3 %ID/g
